Results collected from several papers.
Each line is one published result; not all experiments were run side by side. Values joined by “and” are separate records of one study, mostly repeats; a detail may differ. ± marks the error that the study gave.
Sequence of UniProt Q9NPD5 (whole entry, looked up): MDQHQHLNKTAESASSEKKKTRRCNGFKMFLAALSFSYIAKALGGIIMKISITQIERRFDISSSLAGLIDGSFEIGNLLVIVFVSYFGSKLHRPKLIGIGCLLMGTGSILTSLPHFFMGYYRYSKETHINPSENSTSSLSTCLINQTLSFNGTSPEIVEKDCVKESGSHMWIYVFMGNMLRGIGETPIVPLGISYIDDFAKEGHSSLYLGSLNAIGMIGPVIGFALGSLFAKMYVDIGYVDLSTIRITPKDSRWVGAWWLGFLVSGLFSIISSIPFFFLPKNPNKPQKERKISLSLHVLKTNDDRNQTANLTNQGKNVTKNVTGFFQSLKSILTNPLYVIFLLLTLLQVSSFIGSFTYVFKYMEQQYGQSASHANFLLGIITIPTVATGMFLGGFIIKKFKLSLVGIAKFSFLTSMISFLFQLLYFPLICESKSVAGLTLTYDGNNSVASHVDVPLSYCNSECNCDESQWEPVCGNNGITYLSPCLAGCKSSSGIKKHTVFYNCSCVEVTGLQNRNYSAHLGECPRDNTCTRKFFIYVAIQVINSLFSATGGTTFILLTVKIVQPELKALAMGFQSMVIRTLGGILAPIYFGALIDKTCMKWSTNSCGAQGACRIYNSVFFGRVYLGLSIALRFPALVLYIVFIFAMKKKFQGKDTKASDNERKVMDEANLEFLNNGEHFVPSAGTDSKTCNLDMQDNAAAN
Sequence of UniProt P48039 (whole entry, looked up): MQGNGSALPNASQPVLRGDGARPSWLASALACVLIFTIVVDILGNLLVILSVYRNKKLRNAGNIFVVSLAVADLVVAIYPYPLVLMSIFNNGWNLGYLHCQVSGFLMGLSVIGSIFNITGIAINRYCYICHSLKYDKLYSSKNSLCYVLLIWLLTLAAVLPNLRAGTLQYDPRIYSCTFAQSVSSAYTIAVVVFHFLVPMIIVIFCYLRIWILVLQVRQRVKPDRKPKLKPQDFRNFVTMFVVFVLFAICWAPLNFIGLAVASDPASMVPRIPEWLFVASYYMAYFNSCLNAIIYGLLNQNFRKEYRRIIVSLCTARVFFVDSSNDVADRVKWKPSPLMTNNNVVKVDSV
Sequence of UniProt Q9UBS0 (whole entry, looked up): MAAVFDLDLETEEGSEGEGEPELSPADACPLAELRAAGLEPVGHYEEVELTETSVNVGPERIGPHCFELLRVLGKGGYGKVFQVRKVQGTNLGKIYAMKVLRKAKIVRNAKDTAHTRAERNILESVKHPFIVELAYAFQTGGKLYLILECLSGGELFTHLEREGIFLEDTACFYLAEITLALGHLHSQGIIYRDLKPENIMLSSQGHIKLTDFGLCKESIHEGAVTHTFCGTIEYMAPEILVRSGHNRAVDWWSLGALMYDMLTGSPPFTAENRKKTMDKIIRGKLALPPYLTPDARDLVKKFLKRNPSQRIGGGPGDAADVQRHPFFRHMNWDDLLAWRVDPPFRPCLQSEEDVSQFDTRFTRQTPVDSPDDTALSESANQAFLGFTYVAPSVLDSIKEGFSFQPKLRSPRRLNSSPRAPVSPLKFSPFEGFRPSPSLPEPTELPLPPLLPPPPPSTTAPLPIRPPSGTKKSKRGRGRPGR

`COc1cccc(OCCN2CCC[C@H](CN3CCc4cc(OC)c(OC)cc4CC3=O)C2)c1`: “time in interaction zone, target present” “no effect” (C57BL/6J mouse, female, stress-naive; intraperitoneal, 5 mg/kg, 14 d post-dose; baseline: before dosing).
`CCc1nnc(-c2c(OC)cc(-c3cnc4cc(-c5cnn(C)c5)ccn34)cc2OC)o1`: “osteoid surface/bone surface” 3.77 ± 0.937% (histomorphometry; male C57BL/6J mouse, tibia; oral gavage, 40 mg/kg once daily, 3 wk).
For `COc1ccccc1-c1n[nH]c2nc(NC3CCN(C(=O)Cc4ccc(F)cc4F)CC3)ncc12`, the relative abundance was 0.94 (bead binding, competition bead pull-down, item: LINJ.27.2350; Leishmania donovani extract; 10 µM; baseline: vehicle).
For `O=C(NCc1cc(F)cc(F)c1)[C@@]1(O)CCN(c2ccc3[nH]ccc3c2)C1=O`, “median survival time” read > 80 days (sample E PDX mouse; dose not given, RTV endpoint 500%).
For `COc1ccccc1-c1n[nH]c2nc(N[C@H]3CC[C@H](NS(=O)(=O)CC(C)C)CC3)ncc12`, the relative abundance was 0.41 (bead binding, competition bead pull-down, item: LINJ.36.0600; Leishmania donovani extract; 10 µM; baseline: vehicle).
`Cc1sc2c(c1C)C(c1ccc(Cl)cc1)=NC(CC(=O)OC(C)(C)C)c1nnc(C)n1-2` (stereo not drawn) has a remaining binding of 70.9% (MTNR1A (Homo sapiens, UniProt P48039); ligand displacement, radioligand; 1 µM).
Under “action potential amplitude”, `CCN(Cc1ccccc1)C(=O)CCc1nc(CN2CCN(C(=O)Cc3ccc(OC)c(OC)c3)CC2)no1` is recorded as 85.5 ± 10.4 mV (current clamp; DRG neurons, naive rat; 3 µM).
`CCCC[C@@H]1NC(=O)[C@H](Cc2ccc(O)cc2)NC(=O)[C@@H]2CCCN2C(=O)[C@H](CC(=O)O)NC(=O)[C@H](C)NC(=O)[C@H](Cc2ccccc2)NC(=O)[C@@H]2CSCCC(=O)N3CN(CN(C3)C(=O)CCSC[C@@H](C(=O)N[C@@H](C)C(N)=O)NC1=O)C(=O)CCSC[C@H](NC(C)=O)C(=O)N[C@@H](CC(C)(C)C)C(=O)N1CCC[C@H]1C(=O)N[C@@H](CCC(=O)O)C(=O)N[C@H](CCCCNC(=O)CCc1cn(CCOCCOCCOCCN(CCOCCOCCOCCC(=O)N[C@H]3CSCCC(=O)N4CN5CN(C4)C(=O)CCSC[C@H](NC(=O)[C@@H](CC(=O)O)NC(=O)[C@H](Cc4cccc6ccccc46)NC(=O)[C@@H]4CCCN4C3=O)C(=O)N[C@@H](CCSC)C(=O)N[C@@H](CCCCNC(=N)N)C(=O)N[C@@H](CC(=O)O)C(=O)N[C@@H](Cc3c[nH]c4ccccc34)C(=O)N[C@@H](CO)C(=O)N[C@@H]([C@@H](C)O)C(=O)N3CCC[C@H]3C(=O)N3C[C@H](O)C[C@H]3C(=O)N[C@@H](Cc3c[nH]c4ccccc34)C(=O)N[C@H](C(N)=O)CSCCC5=O)CCOCCOCCOCCn3cc(CCC(=O)NCCCC[C@H]4NC(=O)[C@H](CCC(=O)O)NC(=O)[C@@H]5CCCN5C(=O)[C@H](CC(C)(C)C)NC(=O)[C@@H](NC(C)=O)CSCCC(=O)N5CN6CN(C5)C(=O)CCSC[C@H](NC(=O)[C@H](Cc5ccc(O)cc5)NC(=O)[C@@H]5CCCN5C4=O)C(=O)N[C@@H](Cc4ccccc4)C(=O)N[C@@H](C)C(=O)N[C@@H](CC(=O)O)C(=O)N4CCC[C@H]4C(=O)N[C@@H](Cc4ccc(O)cc4)C(=O)N[C@@H](CCCC)C(=O)N[C@H](C(=O)N[C@@H](C)C(N)=O)CSCCC6=O)nn3)nn1)C(=O)N1CCC[C@H]1C(=O)N[C@@H](Cc1ccc(O)cc1)C(=O)N2` has a mRNA level of 1.24 (NanoString, item: Cd164-mRNA; mouse bearing MC38-Nectin-4 tumour, circulating white blood cells; 5 mg/kg, 24 h after dosing, unit not given; baseline: vehicle).
For `CC(C)NCCCn1c(Sc2cc3c(cc2I)OCO3)nc2c(N)ncnc21`, “time since remission” read > 450 days (human; 300 mg/m^2).
`O=C(O)c1ccc(-c2nc(-c3ccccc3Cl)c3sccn23)cc1` has a spleen weight of 0.0031% and 0.0033% and 0.0029% (mouse; dose not given, day 10, with: 5-fluorouracil; baseline: body weight).
`CCCCCC1=C(NCC)C(=O)C(C/C=C(\C)CCC=C(C)C)=C(O)C1=O`: “log2 fold change” 1.13 (RNA-Seq, item: Ifit3 mRNA; mice, AAV9-A53T α-synuclein lesion, lesioned striatum; oral, dose not given; baseline: vehicle-treated lesioned mice).
Under “number of cell lines”, `CSCC[C@H](NC(=O)[C@@H](NC(=O)[C@H](CCC(N)=O)NC(=O)[C@H](CO)NC(=O)[C@@H](N)C(C)C)[C@@H](C)O)C(=O)N[C@@H](CCCNC(=N)N)C(=O)N[C@@H](CCC(N)=O)C(=O)N[C@H](C(=O)N[C@@H](C)C(=O)N[C@H](C(=O)N1CCC[C@H]1C(=O)N[C@@H](CC(C)C)C(=O)N[C@@H](CC(C)C)C(=O)N[C@@H](Cc1c[nH]c2ccccc12)C(=O)N[C@@H](Cc1ccccc1)C(=O)N[C@@H](Cc1c[nH]c2ccccc12)C(=O)N[C@H](C(=O)NCC(=O)N[C@@H](CO)C(=O)N[C@@H](CC(C)C)C(=O)NCCOCCOCCOCCOCCOCCOCCOCCOCCOCCOCCOCCOCCC(=O)N[C@@H](CS)C(N)=O)[C@@H](C)O)C(C)C)[C@@H](C)O` is recorded as 3 (phage binding; panel of 11 cancer lines; selectivity at least 20).
For `CC(C)CC(C(=O)N1CC2(CC1C#N)C(=O)Nc1ccccc12)N(C)C(=O)c1cc2c(F)cc(F)c(F)c2[nH]1` (stereo not drawn), the remaining activity was 0.67% (Replicase polyprotein 1ab, main protease (rep, Porcine epidemic diarrhea virus, UniProt P0C6Y4); protease activity, inhibitor; 10 µM).
Under serum prolactin, `O=C(Cc1ccc(Cl)c(Cl)c1)N1CCN(CC2CCC2)[C@@H]2COC[C@H](N3CCCC3)[C@H]21` (single isomer, unassigned) is recorded as “inhibited” (antagonist; male C57BL/6 mice, serum; 3 mg/kg, 15 min, KOR target engagement, with: KOR agonist 30 mg/kg).
`Cc1ccc(S(=O)(=O)N2CC2C(=O)N(C)C)cc1` (stereo not drawn) gave a tumour volume of 790 mm3 (mouse, Lewis lung carcinoma; intraperitoneal, 170 mg/kg, 16 doses, day 13).
`CS(C)(=O)=Nc1ccc(-c2ccc(-c3nc4cc(O[C@@H]5CO[C@H]6[C@@H]5OC[C@H]6O)[nH]c4cc3F)cc2)cc1` gave an inhibition of 38% (MCHR1 (Homo sapiens, UniProt Q99705); calcium signal, antagonist; 10 µM).
For `CC[C@H](C)[C@H](NC(=O)[C@H](CO)NC(=O)[C@H](Cc1ccc(O)cc1)NC(=O)[C@H](Cc1ccc(O)cc1)NC(=O)[C@H](CC(N)=O)NC(=O)CNC(=O)[C@H](CO)NC(=O)[C@H](Cc1ccc(O)cc1)NC(=O)[C@H](CO)NC(=O)[C@H](CO)NC(=O)[C@H](CC(N)=O)NC(=O)COCCOCCNC(=O)CN1CCN(CC(=O)O)CCN(CC(=O)O)CCN(CC(=O)O)CC1)C(=O)N[C@@H](CC(C)C)C(N)=O` [copper-64 labelled], the tumour uptake was 10.2 %ID/mL (dynamic PET; mouse, tamoxifen-induced PDAC, blood; intravenous, 0.1 µg/mouse, 7.5 min).
The cytokine level of `CC(C)C[C@@H]1NC(=O)[C@@H](Cc2c[nH]c3ccccc23)NC(=O)[C@H](CCCNC(=N)N)NC(=O)[C@@H](CCC(=O)O)NC(=O)[C@H](CCC(N)=O)NC(=O)[C@@H](CCC(=O)O)NC(=O)[C@H](CCCNC(=N)N)NC(=O)[C@@H](Cc2c[nH]c3ccccc23)NC1=O` is reported as 270 ± 140 pg/g tissue (Luminex, item: IL-12p70; LDLr-/- mice, Western diet, liver; dose not given, 4 weeks).
`O=C1NC2(CC2)COc2ncc(F)cc2[C@H]2COCCN2c2ccn3ncc1c3n2` gave a serum urea of 6.29 ± 1.84 mmol/L (Sprague-Dawley rat, male, serum; oral, 20 mg/kg/day, end of treatment, 4-week subacute toxicity).
With `CC(=O)NCCCC[C@@H]1NC(=O)[C@H](Cc2c[nH]c3c(C)cccc23)NC(=O)[C@H]([C@@H](C)O)NC(=O)[C@H](CC(N)=O)NC(=O)[C@@H](NC(C)=O)C(C)(C)SSC(C)(C)[C@@H](C(=O)N[C@@H](Cc2ccc(OCCN)cc2)C(=O)N[C@@H](Cc2ccc3ccccc3c2)C(=O)NC2(C(=O)N[C@@H](CCC(=O)O)C(=O)N[C@@H](CC(N)=O)C(=O)N[C@@H](Cc3cccnc3)C(=O)N(C)CC(N)=O)CCOCC2)NC1=O` the uptake rate was 0.063 ± 0.0038 pmol/mg/min (SLCO1B3 (Homo sapiens, UniProt Q9NPD5); substrate; HEK293 overexpressing transporter; 5 µM, 30 min, with: 25 µM rifampicin).
Under “revertant colonies per plate”, `Cc1nc2cccc(OCC(C)(C)C(=O)NC(C)C)c2c(N)c1C(=O)[O-].[Na+]` is recorded as 132 ± 3 (Salmonella typhimurium; TA100; 0.13 mg per plate, without S9, preincubation).
For `C[C@]12C(=O)[C@](C)(C(c3ccccc3)=C1c1ccccc1)C1(Br)C(=O)N(CCN)C(=O)C12` (stereo partly drawn), “time to 50% conversion” read 23 min and 19 min and 16 min and 18 min (HPLC, item: CO-release by-product; TRIS-sucrose buffer; pH 7.4, 37 °C).
Under “time to fertility recovery”, `Cc1ccc(C2=CC(C)(C)Oc3ccc(-c4ccc(-c5ccc(C(=O)O)cc5)[nH]4)cc32)cc1` is recorded as ≤ 6 weeks (CD1 mouse male; dose not given, after end of dosing).
The live cells of `CN[C@@H]1C[C@H]2O[C@@](C)([C@@H]1OC)n1c3ccccc3c3c4c(c5c6ccccc6n2c5c31)C(=O)NC4` is reported as 65.4% (annexin V flow cytometry; pancreatic islet cells, mouse; 1 µM, 24 h).
For `O=c1n(CCNCCOS(=O)(=O)c2ccccc2)c(=O)n(S(=O)(=O)c2ccccc2)c(=O)n1S(=O)(=O)c1ccccc1`, the inhibition was 53.7% (DPPH scavenging; 500 µg/mL).
With `Cc1cc(C(=O)Nc2nc3cccc(C)c3n2[C@H]2CCCCN(C(=O)/C=C/CN(C)C)C2)ccn1` the survival was 188% and 195% and 167% and 204% (Trypanosoma brucei brucei; 2T1 CLK1 overexpressing; 0.0391 µM, compound pretreated; baseline: maximum).
Under “tumour growth inhibition”, `CC(C)c1cc2c(c(O)c1O)[C@@]1(C(=O)O)CCCC(C)(C)[C@@H]1CC2` is recorded as 46.3% (C57BL/6 mice, subcutaneous lung adenocarcinoma; iv, 3 mg/kg every two days, six doses, 48 h).
`CN(C)[C@H]1C[C@@]23CC[C@@]4(O2)C(=CC[C@]2(C)[C@@H](c5ccc6ccncc6c5)CC[C@H]24)C=C3[C@@H](O)[C@@H]1O` has an inhibition of -9.5% (RPS6KB2 (Homo sapiens, UniProt Q9UBS0); ATP probe labelling, inhibitor, KiNativ profiling; 0.1 µM).
For `CC(C)C[C@H](NC(=O)[C@H](CC(=O)O)NC(=O)CNC(=O)[C@@H](N)CCCNC(=N)N)C(=O)N[C@@H](C)C(=O)N[C@H](C(=O)N[C@@H](CC(C)C)C(=O)N[C@@H](CCCNC(=N)N)C(=O)N[C@@H](CCC(N)=O)C(=O)N[C@@H](CC(C)C)C(=O)N[C@@H](C)C(=O)N[C@@H](CCC(N)=O)C(=O)N[C@@H](CCC(=O)O)C(=O)N[C@@H](CC(=O)O)C(=O)NCC(=O)N[C@H](C(=O)N[C@H](C(=O)NCC(=O)N[C@H](C(=O)N[C@@H](CCCNC(=N)N)C(=O)NCCOCCOCCOCCOCCOCCOCCOCCOCCOCCOCCOCCOCCC(=O)N[C@@H](CS)C(N)=O)C(C)C)C(C)C)C(C)C)[C@@H](C)O`, “number of cell lines” read 1 (phage binding; panel of 11 cancer lines; selectivity at least 20).
The log LC50 of `CC(C)(C)C(=O)OCOP(=O)(OCOC(=O)C(C)(C)C)C1CCCN(O)C1=O` (stereo not drawn) is reported as > -4 log M (SW-620).

A few entries again:
For `O=c1n(CCNCCOS(=O)(=O)c2ccccc2)c(=O)n(S(=O)(=O)c2ccccc2)c(=O)n1S(=O)(=O)c1ccccc1`, the inhibition was 53.7% (DPPH scavenging; 500 µg/mL).
For `COc1ccccc1-c1n[nH]c2nc(N[C@H]3CC[C@H](NS(=O)(=O)CC(C)C)CC3)ncc12`, the relative abundance was 0.41 (bead binding, competition bead pull-down, item: LINJ.36.0600; Leishmania donovani extract; 10 µM; baseline: vehicle).
`CN(C)[C@H]1C[C@@]23CC[C@@]4(O2)C(=CC[C@]2(C)[C@@H](c5ccc6ccncc6c5)CC[C@H]24)C=C3[C@@H](O)[C@@H]1O` has an inhibition of -9.5% (RPS6KB2 (Homo sapiens, UniProt Q9UBS0); ATP probe labelling, inhibitor, KiNativ profiling; 0.1 µM).
For `C[C@]12C(=O)[C@](C)(C(c3ccccc3)=C1c1ccccc1)C1(Br)C(=O)N(CCN)C(=O)C12` (stereo partly drawn), “time to 50% conversion” read 23 min and 19 min and 16 min and 18 min (HPLC, item: CO-release by-product; TRIS-sucrose buffer; pH 7.4, 37 °C).
